Assay results collected from several papers.
± gives the spread as reported.

With Cc1ccc(/C=C/C(=O)O)cc1-c1cc2c(cc1C)C(C)(C)CCC2(C)C the HDL level was 39 ± 5 mg/dL (Sprague-Dawley rat, male, plasma; oral, 100 mg/kg, 12 h, sesame oil vehicle).
CN(C)C(CNC(=O)Nc1cc(C(F)(F)F)ccc1N1CCOCC1)c1ccncc1 (stereo not drawn) gave a serum globulin of 1.2 g/dL (mouse, serum; intraperitoneal, 360 mg/kg single dose).
CC[C@H](C)C(=O)N1CCC(NC(=O)Nc2ccc(OC(F)(F)F)c(F)c2)CC1 — result for “subjects with dermatitis TEAE”: 50% (healthy volunteers; oral, 24 mg single dose, device site dermatitis).
O=C(C[P+]([Au-][Cl])(c1ccccc1)c1ccccc1)[O][Ti+2][O]C(=O)C[P+]([Au-][Cl])(c1ccccc1)c1ccccc1.c1cc[cH-]c1.c1cc[cH-]c1 — result for “time to death”: less than 24 h (C57BL/6 mice, female; subcutaneous, 15 mg/kg/day).
CN[C@](C)(C[18F])C(=O)O has a tracer uptake of 54 %ID/g (mouse, pancreas; 30 min, tumour-bearing).
COc1cc2ncnc(Oc3cccc(N[11C](=O)Nc4cc(C(C)(C)C(F)(F)F)on4)c3)c2cc1OC gave a tissue uptake of 4.69 ± 0.2 %ID/g (Balb/c nude mouse, female, A375 melanoma xenograft, heart; 6.6 MBq, 60 min).
With CC1=CC=c2ccc3c4c2[N]1[Re](=[C]=O)(=[C]=O)(=[C]=O)([C]#[N+]c1c(C)cccc1C)[N]4C(C)=CC=3.O=S(=O)([O-])C(F)(F)F the luminescence lifetime was 6.8 µs (PBS; pH 7.4, nitrogen-saturated).
Under “log octanol-water partition coefficient”, CCCCCCCCCCCCC(=O)O.O=C1CCCC2C3CCCN4CCCC(CN12)C34 (stereo not drawn) is recorded as -0.07 (shake-flask; simulated intestinal fluid; pH 6.8, 25 °C).
C[C@]12CC[C@H](O)CC1CCC1C2[C@H](O)C(=O)[C@]2(C)[C@@H](c3ccc(=O)oc3)CC[C@]12O (stereo partly drawn) has a sulfation rate of 58.7 pmol/min/mg protein (substrate; pooled human liver cytosol; concentration not given, pH 7.4).
For C/C=C/C=C/C/C=C/CCCCCCCc1cccc(O)c1O, the tissue concentration was 35200 ± 3290 ng/g (female Kunming mice, tumour-bearing, tumor; intravenous, 10 mg/kg, 0.083 h).
Under “maximum bone radioactivity”, [18F]c1ccc2cc(-c3cnc(N4CCOCC4)nc3)[nH]c2c1 is recorded as 1.9 SUV (dynamic PET; Sprague-Dawley rat; intravenous, 120 min).
With CNC(=O)Oc1cc(C)c([S+](C)[O-])c(C)c1 (stereo not drawn) the percent metabolized was 5.51% (human liver mitochondrial preparation; 1 µM, 30 min, 0.5 mg/mL protein).
With COc1ccc(NC(=O)Cn2c(=O)c3ccccc3n(CC(=O)Nc3cc([125I])c(OC)cc3OC)c2=O)cc1 the tracer uptake was 2.2 %ID/g (rat, liver; intravenous, 5 min).
With CCCCCCCC(=O)NCCCC[C@H](NC(=O)[C@H](Cc1ccccc1)NC(=O)[C@@H](CCCNC(=N)N)NC(=O)[C@@H](N)Cc1ccc(O)cc1)C(N)=O the MRT was 37.8 min (male CD-1 mouse, plasma; intravenous, 3 mg/kg).
CNC(=O)C1CCN(c2ccccc2NC(=O)c2ccc(-c3cc(O)ccc3C)c(C)n2)CC1 has a microsomal CLint of 156 µL/min/mg (metabolic stability; mouse, liver microsomes; 2 µM).
Under toxicity, CCCC[C@@H]1NC(=O)[C@@H](CC(C)C)NC(=O)[C@H](CCCCN)NC(=O)[C@@H](CO)NC(=O)[C@H](Cc2c[nH]cn2)NC(=O)[C@@H](Cc2c[nH]c3ccccc23)NC1=O is recorded as “not toxic” (wild-type mouse; 10 mg/kg repeated).
For CC(=O)[O-].F[P-](F)(F)(F)(F)F.[Co+2].c1ccc(CN2CCCN3CCN(CCCN(Cc4ccccc4)CC3)CC2)cc1, the peak separation was 75 mV (cyclic voltammetry, refers to: second Co2+/Co3+ couple; acetonitrile).
O=C(NCCCCn1ccc2ccccc21)Oc1ccccc1 has a parent remaining of 53 ± 5% (rat liver S9 fraction; 30 min, with: NADPH).
CC[C@H](C)[C@H](NC(=O)[C@H](CC(=O)O)NC(=O)[C@H](CO)NC(=O)[C@H](CCC(N)=O)NC(=O)[C@H](C)NC(=O)[C@H](CC(=O)O)NC(=O)[C@H](CCC(=O)O)NC(=O)[C@H](Cc1c[nH]cn1)NC(=O)[C@H](Cc1ccc(O)cc1)NC(=O)[C@H](C)NC(=O)[C@H](CC(=O)O)NC(=O)[C@H](CCC(=O)O)NC(=O)[C@H](Cc1c[nH]cn1)NC(=O)[C@H](Cc1ccc(O)cc1)NC(=O)[C@H](C)NC(=O)[C@H](CC(=O)O)NC(=O)[C@H](CCC(=O)O)NC(=O)[C@H](Cc1c[nH]cn1)NC(=O)[C@H](Cc1ccc(O)cc1)NC(=O)[C@H](C)NC(=O)[C@H](CC(=O)O)NC(=O)[C@H](CCC(=O)O)NC(=O)[C@H](Cc1c[nH]cn1)NC(=O)[C@H](Cc1ccc(O)cc1)NC(=O)[C@H](C)NC(=O)[C@H](CC(=O)O)NC(=O)[C@H](CCC(=O)O)NC(=O)[C@H](Cc1c[nH]cn1)NC(=O)[C@@H](N)Cc1ccc(O)cc1)C(=O)N[C@H](C(=O)N[C@@H](C)C(=O)N[C@@H](Cc1c[nH]cn1)C(=O)N[C@@H](CC(C)C)C(=O)N[C@@H](CC(C)C)C(=O)O)C(C)C has an AST of 50 ± 6 IU/L (normal mouse; dose not given).
COc1cc(NC(=O)C(=O)c2c(C)n(Cc3ccc(Cl)cc3)c3ccc(C)cc23)ccn1 has a C0 of 2020 ng/mL (cynomolgus monkey, female, plasma; intravenous, 1 mg/kg).
For O=C(CN1CCN(c2cc3c(cc2F)c(=O)c(C(=O)O)cn3C2CC2)CC1)Nc1ccc(Cl)cc1, the rate constant was 0.00379 min⁻¹ (two-compartment model, refers to: k12; BALB/c mice, female; iv, 3.75 mg/kg).

Excerpt of the above:
With Cc1ccc(/C=C/C(=O)O)cc1-c1cc2c(cc1C)C(C)(C)CCC2(C)C the HDL level was 39 ± 5 mg/dL (Sprague-Dawley rat, male, plasma; oral, 100 mg/kg, 12 h, sesame oil vehicle).
CC[C@H](C)[C@H](NC(=O)[C@H](CC(=O)O)NC(=O)[C@H](CO)NC(=O)[C@H](CCC(N)=O)NC(=O)[C@H](C)NC(=O)[C@H](CC(=O)O)NC(=O)[C@H](CCC(=O)O)NC(=O)[C@H](Cc1c[nH]cn1)NC(=O)[C@H](Cc1ccc(O)cc1)NC(=O)[C@H](C)NC(=O)[C@H](CC(=O)O)NC(=O)[C@H](CCC(=O)O)NC(=O)[C@H](Cc1c[nH]cn1)NC(=O)[C@H](Cc1ccc(O)cc1)NC(=O)[C@H](C)NC(=O)[C@H](CC(=O)O)NC(=O)[C@H](CCC(=O)O)NC(=O)[C@H](Cc1c[nH]cn1)NC(=O)[C@H](Cc1ccc(O)cc1)NC(=O)[C@H](C)NC(=O)[C@H](CC(=O)O)NC(=O)[C@H](CCC(=O)O)NC(=O)[C@H](Cc1c[nH]cn1)NC(=O)[C@H](Cc1ccc(O)cc1)NC(=O)[C@H](C)NC(=O)[C@H](CC(=O)O)NC(=O)[C@H](CCC(=O)O)NC(=O)[C@H](Cc1c[nH]cn1)NC(=O)[C@@H](N)Cc1ccc(O)cc1)C(=O)N[C@H](C(=O)N[C@@H](C)C(=O)N[C@@H](Cc1c[nH]cn1)C(=O)N[C@@H](CC(C)C)C(=O)N[C@@H](CC(C)C)C(=O)O)C(C)C has an AST of 50 ± 6 IU/L (normal mouse; dose not given).
